# Measured values pooled from the literature.
# A part holds a random share of what one study measured.
# UniProt Q15303, sequence (whole entry, looked up): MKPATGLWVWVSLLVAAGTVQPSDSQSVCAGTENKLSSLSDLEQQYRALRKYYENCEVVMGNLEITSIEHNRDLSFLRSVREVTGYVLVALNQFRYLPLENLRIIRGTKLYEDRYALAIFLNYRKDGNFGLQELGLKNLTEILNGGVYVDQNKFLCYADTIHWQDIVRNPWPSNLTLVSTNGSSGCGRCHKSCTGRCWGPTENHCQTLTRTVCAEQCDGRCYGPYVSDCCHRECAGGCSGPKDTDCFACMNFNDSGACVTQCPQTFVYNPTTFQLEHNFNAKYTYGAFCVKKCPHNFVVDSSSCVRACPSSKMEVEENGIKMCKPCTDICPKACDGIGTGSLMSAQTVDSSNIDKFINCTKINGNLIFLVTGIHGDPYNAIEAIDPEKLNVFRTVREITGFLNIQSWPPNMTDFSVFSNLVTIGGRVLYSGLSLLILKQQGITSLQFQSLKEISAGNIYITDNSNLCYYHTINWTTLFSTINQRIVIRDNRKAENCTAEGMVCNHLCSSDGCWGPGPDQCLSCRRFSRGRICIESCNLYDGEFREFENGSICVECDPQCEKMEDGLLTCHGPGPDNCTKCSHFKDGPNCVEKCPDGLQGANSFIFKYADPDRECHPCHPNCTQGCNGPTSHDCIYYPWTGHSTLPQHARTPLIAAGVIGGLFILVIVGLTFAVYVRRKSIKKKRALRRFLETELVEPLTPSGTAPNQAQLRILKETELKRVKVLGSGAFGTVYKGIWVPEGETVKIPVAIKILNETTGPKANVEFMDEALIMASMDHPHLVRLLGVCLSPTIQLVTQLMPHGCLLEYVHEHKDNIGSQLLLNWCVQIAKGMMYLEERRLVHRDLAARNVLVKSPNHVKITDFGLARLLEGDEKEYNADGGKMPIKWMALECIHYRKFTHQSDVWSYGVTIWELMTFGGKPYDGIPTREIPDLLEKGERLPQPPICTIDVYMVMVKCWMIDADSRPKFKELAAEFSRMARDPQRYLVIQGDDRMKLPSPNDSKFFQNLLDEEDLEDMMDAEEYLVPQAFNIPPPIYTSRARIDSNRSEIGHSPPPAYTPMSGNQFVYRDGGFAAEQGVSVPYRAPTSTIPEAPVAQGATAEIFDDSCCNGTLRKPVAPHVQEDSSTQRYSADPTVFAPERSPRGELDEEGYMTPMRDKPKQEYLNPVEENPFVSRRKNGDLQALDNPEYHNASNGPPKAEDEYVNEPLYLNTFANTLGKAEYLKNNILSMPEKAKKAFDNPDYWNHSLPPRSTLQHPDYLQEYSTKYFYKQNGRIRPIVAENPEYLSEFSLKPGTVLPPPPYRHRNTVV

# Series 1 — technique: protein binding microarray; form: double-stranded DNA, one strand shown; matrix: in vitro; concentration: not given; baseline: not given; direction: higher = stronger binding
# Target: Histone acetyltransferase KAT6A, winged helix 1, GST fusion (KAT6A, Homo sapiens, UniProt Q92794, residues 1-85)
# Notes: 8-mer, flanks averaged, mean of 2 arrays, mostly near background
# Target sequence (chain): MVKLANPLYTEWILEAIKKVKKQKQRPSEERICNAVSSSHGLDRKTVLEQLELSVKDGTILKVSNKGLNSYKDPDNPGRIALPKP
Strand,E-score
TATAAAAA,-0.141
CGGAAGAG,0.114
AAAACCGT,0.0353
CGCCTTAA,0.147
AGGTACCA,-0.235
AATGGCCA,-0.111
AATGGCAG,-0.133
AACAAATG,-0.0693

# Series 2 — technique: RNAcompete; form: RNA; matrix: in vitro; concentration: 20 nM; notes: 7-mer, probes averaged, single round; baseline: mean of 7-mers; direction: higher = stronger binding
# Target: PABPC1L2, full length, GST fusion (mouse, UniProt A0ABA7IW68)
# Residues (chain): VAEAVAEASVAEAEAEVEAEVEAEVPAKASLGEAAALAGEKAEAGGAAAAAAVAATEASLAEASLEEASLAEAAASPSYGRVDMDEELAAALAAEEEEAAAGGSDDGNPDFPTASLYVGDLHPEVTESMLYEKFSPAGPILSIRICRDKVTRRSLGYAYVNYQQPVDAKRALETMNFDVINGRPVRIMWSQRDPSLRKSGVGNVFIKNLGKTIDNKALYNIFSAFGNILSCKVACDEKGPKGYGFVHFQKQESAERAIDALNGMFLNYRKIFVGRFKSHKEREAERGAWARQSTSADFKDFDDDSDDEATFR
Strand,7-mer Z-score
UGGGUGG,0.0587
AAUUCAA,0.189
GCCGGAG,0.0478
ACAUUAU,0.0478
CAGGCGC,-0.166
AGAGUCC,-0.336
AGGCUGA,0.247
ACAAAAU,2.65

# Single results of other studies
Structure (SMILES),tested on,assay,system,conditions,how to read,measurement,value
O=c1cc(N2CCOCC2)oc2c1ccc1ccccc12,"Receptor tyrosine-protein kinase erbB-4 (ERBB4, Homo sapiens, UniProt Q15303)","enzyme activity, inhibitor",,0.5 µM,baseline: control,remaining activity,101%
CC(C)n1cnc(-c2ccc(F)cc2)c1-c1ncc(C(=O)Nc2ccc(N3CCN(C)CC3)cc2)[nH]1,,,"human, idiopathic pulmonary fibrosis","30 mg once daily, trial, treatment-emergent",,patients with urinary tract infection,0%
